Measurements pooled from the literature.
Compare with care: the assays were run in different laboratories. ± marks the error that the study gave.
Organism: Plasmodium falciparum

With CCN(CC)CCCC(C)Nc1ccnc2cc(Cl)ccc12 (centres unmarked) the IC50 was 68.5 ± 0.1 nM (parasite growth; Dd2 kelch13 R539T, artemisinin resistant; 72 h, ring stage).
For O=C(O)/C=C/C=C/c1cccc(Oc2cc(Cl)cc(Cl)c2)c1, the IC50 was over 100000 nM (parasite growth, inhibitor, SYBR Green I; Cam3.1 R539T (MRA-1240)).
CNCCC=C1c2ccccc2CCc2ccccc21 gave an IC50 of 10000 nM (3D7).
With C[C@@H]1CC[C@H]2[C@@H](C)C(=O)O[C@@H]3O[C@@]4(C)CC[C@@H]1[C@]32OO4 the IC50 was 73.91 ± 0.01 nM (parasite growth, SYBR Green I; 3D7).
For O=C1C(O)=C([C@H]2CC[C@H](c3ccc(Cl)cc3)CC2)C(=O)c2ccccc21, the IC50 was over 25000 nM (growth; C2B; 48 h).
The IC50 of CC(CN1c2ccccc2Sc2ccccc21)N(C)C (centres unmarked) is reported as 2510 nM (W2).
Cc1ccc2c(c1C)NC(=O)[C@]21NN=C(c2ccccc2)S1 has an IC50 of 1190 nM (parasite growth, inhibitor, SYBR Green I; Cam3.1 R539T (MRA-1240)).
For N=C(CC(O)c1cc2c(F)cc(F)cc2c2cc(C(F)(F)F)ccc12)Nc1cccc(F)c1 (centres unmarked), the IC50 was 0.6 to 7.6 nM (parasite growth, HRP2 ELISA; clinical isolates from Gabon; ex vivo, range over isolates).
CNCCC(Oc1ccccc1OC)c1ccccc1 (centres unmarked) gave an IC50 of 2510 nM (Dd2).
With Oc1ccc2c3c1O[C@H]1c4[nH]c5c(c4C[C@@]4(O)[C@@H](C2)N(CC2CC2)CC[C@]314)C[C@@]1(O)[C@H]2Cc3ccc(O)c4c3[C@@]1(CCN2CC1CC1)[C@H]5O4 the IC50 was 34000 nM (growth, SYBR Green; FVO; 36 h).
COC1=CC(c2ccc[nH]2)=N/C1=C\c1[nH]c(Cc2ccc(OC(F)(F)F)cc2)cc1Cc1ccc(OC(F)(F)F)cc1 gave an IC50 of 34.8 nM (parasite growth; DR1, artemisinin-resistant; 72 h, synchronized rings).
C[C@@H]1CC[C@H]2[C@@H](C)C(=O)O[C@@H]3O[C@@]4(C)CC[C@@H]1[C@]32OO4 gave an IC50 of 5.9 ± 0.9 nM (parasite growth; Cam WT, compound-sensitive; 72 h).
CC(=O)O[C@H]1C(=O)[C@@]2(C)[C@H]([C@H](OC(=O)c3ccccc3)[C@]3(O)C[C@H](OC(=O)[C@H](O)[C@@H](NC(=O)c4ccccc4)c4ccccc4)C(C)=C1C3(C)C)[C@]1(OC(C)=O)CO[C@@H]1C[C@@H]2O has an IC50 of 79.4 nM (3D7).
The IC50 of CCN(CC)CCCC(C)Nc1ccnc2cc(Cl)ccc12 (centres unmarked) is reported as 20 ± 1 nM (growth, [3H]-hypoxanthine uptake; Dd2; 72 h).
The IC50 of CC(=O)c1c(O)c(C)c(O)c2c1OC1=CC(=O)C(C(C)=O)C(=O)C12C (single isomer, unassigned; (+)) is reported as 15300 nM (parasite growth, [3H]hypoxanthine incorporation; K1; erythrocytic stages).
O=C(O)c1cc(-c2ccc(Br)cc2)nc2ccc(Cl)cc12 gave an IC50 of over 100000 nM (parasite growth, inhibitor, SYBR Green I; Cam3.1 R539T (MRA-1240)).
C/C(=N/NC(=O)c1cn(-c2ccccc2)nc1-c1ccc(C)cc1)c1c(O)cc(C)oc1=O has an IC50 of 11800 nM (parasite growth, SYBR Green I fluorescence; 3D7; 72 h).
CCN(CC)CCCC(C)Nc1ccnc2cc(Cl)ccc12 (centres unmarked) gave an IC50 of 0.02 to 0.15 µg/mL (parasite growth; D6 and W2).
O=C1N=c2cc(Cl)c(Cl)cc2=NC1=O has an IC50 of 2510 nM (HB3).
CO[C@H]1/C=C/O[C@@]2(C)Oc3c(C)c(O)c4c(O)c(c(/C=N/N5CCN(C)CC5)c(O)c4c3C2=O)NC(=O)/C(C)=C\C=C[C@H](C)[C@H](O)[C@@H](C)[C@@H](O)[C@@H](C)[C@H](OC(C)=O)[C@@H]1C gave an IC50 of 5770 nM (parasite growth, inhibitor, SYBR Green I; Cam3.1 R539T (MRA-1240)).
The IC50 of N=C(CC(O)c1cc2c(F)cc(F)cc2c2cc(C(F)(F)F)ccc12)Nc1cc(F)c(F)c(F)c1 (centres unmarked) is reported as 0.2 to 25.2 nM (parasite growth, HRP2 ELISA; clinical isolates from Gabon; ex vivo, range over isolates).
CC1(C)N=C(N)N=C(N)N1c1ccc(Cl)cc1 gave an IC50 of 1200 ± 520 nM (growth, [3H]-hypoxanthine uptake; FCR3; 72 h).
With N=C(N)c1ccc(OCCCCCOc2ccc(C(=N)N)cc2)cc1 the IC50 was 2.4 nM (parasite growth, inhibitor, SYBR Green I; Cam3.1 R539T (MRA-1240)).
O=c1c(O)c(-c2ccc(O)cc2O)oc2cc(O)cc(O)c12 — result for IC50: “inactive” (growth, SYBR green; FVO; 36 h).
With O=C(CCCN1CC=C(n2c(=O)[nH]c3ccccc32)CC1)c1ccc(F)cc1 the IC50 was 1580 nM (D10).
With O=C(O)c1cn(C2CC2)c2cc(N3CCNCC3)c(F)cc2c1=O the IC50 was 8000 nM (parasite proliferation, SYBR Green; 3D7; erythrocytic stage).
CC(C)(Sc1ccc(CCN(CCCCC2CCCCC2)C(=O)NC2CCCCC2)cc1)C(=O)O — result for IC50: “inactive” (growth, SYBR green; FVO; 36 h).
For CC(C)(C)C(O)C(Oc1ccc(-c2ccccc2)cc1)n1cncn1 (centres unmarked), the IC50 was 52000 nM (parasite growth, inhibitor, SYBR Green I; Cam3.1 R539T (MRA-1240)).
The IC50 of COCC(=O)O[C@]1(CCN(C)CCCc2nc3ccccc3[nH]2)CCc2cc(F)ccc2[C@@H]1C(C)C is reported as 398 nM (GB4).
N=C(CC(O)c1cc2c(F)cc(F)cc2c2cc(C(F)(F)F)ccc12)Nc1ccc(F)c(F)c1 (centres unmarked) gave an IC50 of 15 nM.
CCN(CC)CCCC(C)Nc1ccnc2cc(Cl)ccc12 (centres unmarked) gave an IC50 of 0.107 ± 0.0175 µg/mL (W2, resistant; 72 h).
With CN(C)CC[C@@H](c1ccc(Cl)cc1)c1ccccn1 the IC50 was 1260 nM (W2).
For Clc1cccc(C(c2ccc3[nH]cnc3c2)n2ccnc2)c1 (centres unmarked), the IC50 was 29000 nM (growth, SYBR Green; FVO; 36 h).
Cl.O[C@]12C=C(c3nccc4c3[nH]c3ccccc34)[C@@H]3CCN(CCCC/C=C\CC1)C[C@@]31C[C@@H]3/C=C\CCCCN3[C@H]12 gave an IC50 of 0.0061 ± 0.0024 µg/mL (parasite LDH; D6, chloroquine-sensitive; 72 h).
For COc1cccc(N2CCN(C3=Nc4c(F)cccc4[C@H](CC(=O)O)N3c3cc(C(F)(F)F)ccc3OC)CC2)c1, the IC50 was 40500 nM (parasite growth, inhibitor, SYBR Green I; Cam3.1 R539T (MRA-1240)).
CN(C)CCCN1c2ccccc2C(C)(C)c2ccccc21 gave an IC50 of 30000 nM (growth, SYBR Green; FVO; 36 h).
C[C@@H](c1cc(Cl)cc(Cl)c1)N(C)c1ncc2c(N)nc(N)nc2n1 gave an IC50 of 7810 nM (parasite growth, inhibitor, SYBR Green I; Cam3.1 R539T (MRA-1240)).
The IC50 of N=C(CC(O)c1cc2c(F)cc(F)cc2c2cc(C(F)(F)F)ccc12)Nc1ccc(Br)c(F)c1 (centres unmarked) is reported as 12.2 nM (parasite growth, HRP2-ELISA; clinical isolates from Gabon; ex vivo, median).
